Results collected from several papers.
Every numbered part comes from another study and shows a few of its results, in no order.
Sequence of UniProt Q9P286 (whole entry, looked up): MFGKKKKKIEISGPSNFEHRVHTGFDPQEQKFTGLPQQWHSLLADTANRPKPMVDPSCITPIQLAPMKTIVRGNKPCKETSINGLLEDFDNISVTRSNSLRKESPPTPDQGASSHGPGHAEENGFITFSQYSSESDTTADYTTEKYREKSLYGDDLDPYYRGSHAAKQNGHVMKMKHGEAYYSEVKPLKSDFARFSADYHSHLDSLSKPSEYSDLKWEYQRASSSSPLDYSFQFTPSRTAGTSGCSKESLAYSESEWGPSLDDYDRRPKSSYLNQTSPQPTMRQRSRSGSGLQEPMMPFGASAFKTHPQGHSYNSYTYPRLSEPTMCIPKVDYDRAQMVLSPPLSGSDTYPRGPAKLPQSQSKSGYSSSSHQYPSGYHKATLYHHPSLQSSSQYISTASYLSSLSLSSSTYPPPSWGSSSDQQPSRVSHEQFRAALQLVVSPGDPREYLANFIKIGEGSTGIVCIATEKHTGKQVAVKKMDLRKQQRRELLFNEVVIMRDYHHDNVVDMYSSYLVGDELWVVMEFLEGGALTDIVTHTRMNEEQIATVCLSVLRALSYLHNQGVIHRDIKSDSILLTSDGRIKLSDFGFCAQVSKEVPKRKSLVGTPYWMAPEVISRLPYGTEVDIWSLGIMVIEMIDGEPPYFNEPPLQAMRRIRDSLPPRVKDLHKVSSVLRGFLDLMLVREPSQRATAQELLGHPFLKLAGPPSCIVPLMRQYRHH
Sequence of UniProt Q15746 (whole entry, looked up): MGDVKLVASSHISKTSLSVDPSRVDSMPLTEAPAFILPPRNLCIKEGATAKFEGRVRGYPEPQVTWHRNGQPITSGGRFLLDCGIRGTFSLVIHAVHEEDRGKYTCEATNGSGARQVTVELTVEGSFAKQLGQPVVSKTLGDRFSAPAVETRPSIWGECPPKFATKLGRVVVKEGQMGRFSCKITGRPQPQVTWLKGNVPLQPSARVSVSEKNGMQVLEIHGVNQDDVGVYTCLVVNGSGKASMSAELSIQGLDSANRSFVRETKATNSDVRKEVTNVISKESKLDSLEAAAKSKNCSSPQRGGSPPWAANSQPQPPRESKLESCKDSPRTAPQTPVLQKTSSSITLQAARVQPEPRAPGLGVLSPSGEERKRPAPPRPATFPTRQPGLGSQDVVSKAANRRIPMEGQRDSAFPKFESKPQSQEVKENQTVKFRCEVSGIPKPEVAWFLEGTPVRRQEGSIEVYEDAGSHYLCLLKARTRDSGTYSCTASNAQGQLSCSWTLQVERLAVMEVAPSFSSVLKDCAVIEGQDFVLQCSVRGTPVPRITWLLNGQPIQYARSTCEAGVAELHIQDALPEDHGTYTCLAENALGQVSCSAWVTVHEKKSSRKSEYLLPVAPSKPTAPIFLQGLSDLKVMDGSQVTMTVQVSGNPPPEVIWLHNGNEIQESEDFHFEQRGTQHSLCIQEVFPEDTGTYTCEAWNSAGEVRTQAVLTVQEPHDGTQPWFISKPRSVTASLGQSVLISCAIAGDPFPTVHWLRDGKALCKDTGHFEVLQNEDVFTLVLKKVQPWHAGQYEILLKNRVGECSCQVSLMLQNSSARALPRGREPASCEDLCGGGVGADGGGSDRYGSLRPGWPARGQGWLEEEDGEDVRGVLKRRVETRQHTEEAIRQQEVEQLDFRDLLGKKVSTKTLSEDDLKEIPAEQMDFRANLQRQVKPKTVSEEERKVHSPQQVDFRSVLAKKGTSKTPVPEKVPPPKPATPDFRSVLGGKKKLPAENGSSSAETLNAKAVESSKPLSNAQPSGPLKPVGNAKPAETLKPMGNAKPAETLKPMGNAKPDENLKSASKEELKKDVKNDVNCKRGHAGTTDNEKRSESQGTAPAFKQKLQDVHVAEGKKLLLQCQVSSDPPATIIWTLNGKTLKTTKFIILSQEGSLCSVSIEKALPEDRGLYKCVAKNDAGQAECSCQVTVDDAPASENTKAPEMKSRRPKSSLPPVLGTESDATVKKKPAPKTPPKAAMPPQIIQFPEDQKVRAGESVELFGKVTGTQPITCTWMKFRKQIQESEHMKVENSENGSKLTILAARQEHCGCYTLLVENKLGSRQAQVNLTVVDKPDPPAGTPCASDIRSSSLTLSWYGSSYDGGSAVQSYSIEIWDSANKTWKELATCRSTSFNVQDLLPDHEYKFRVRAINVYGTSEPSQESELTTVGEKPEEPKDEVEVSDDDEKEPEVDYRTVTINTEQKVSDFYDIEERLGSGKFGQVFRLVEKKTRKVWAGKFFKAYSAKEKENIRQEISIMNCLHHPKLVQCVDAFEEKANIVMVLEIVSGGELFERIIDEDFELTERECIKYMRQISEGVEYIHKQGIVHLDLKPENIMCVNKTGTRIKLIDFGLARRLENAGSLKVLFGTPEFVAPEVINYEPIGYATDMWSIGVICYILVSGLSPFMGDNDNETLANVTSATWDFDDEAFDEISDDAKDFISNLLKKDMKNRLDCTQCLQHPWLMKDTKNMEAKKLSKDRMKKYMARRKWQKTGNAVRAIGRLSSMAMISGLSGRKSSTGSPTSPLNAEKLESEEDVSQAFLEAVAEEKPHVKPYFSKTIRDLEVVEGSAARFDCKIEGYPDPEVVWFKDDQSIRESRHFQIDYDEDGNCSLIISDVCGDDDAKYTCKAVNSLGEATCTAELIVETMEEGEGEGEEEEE
Sequence of UniProt P42336 (whole entry, unmodified, looked up): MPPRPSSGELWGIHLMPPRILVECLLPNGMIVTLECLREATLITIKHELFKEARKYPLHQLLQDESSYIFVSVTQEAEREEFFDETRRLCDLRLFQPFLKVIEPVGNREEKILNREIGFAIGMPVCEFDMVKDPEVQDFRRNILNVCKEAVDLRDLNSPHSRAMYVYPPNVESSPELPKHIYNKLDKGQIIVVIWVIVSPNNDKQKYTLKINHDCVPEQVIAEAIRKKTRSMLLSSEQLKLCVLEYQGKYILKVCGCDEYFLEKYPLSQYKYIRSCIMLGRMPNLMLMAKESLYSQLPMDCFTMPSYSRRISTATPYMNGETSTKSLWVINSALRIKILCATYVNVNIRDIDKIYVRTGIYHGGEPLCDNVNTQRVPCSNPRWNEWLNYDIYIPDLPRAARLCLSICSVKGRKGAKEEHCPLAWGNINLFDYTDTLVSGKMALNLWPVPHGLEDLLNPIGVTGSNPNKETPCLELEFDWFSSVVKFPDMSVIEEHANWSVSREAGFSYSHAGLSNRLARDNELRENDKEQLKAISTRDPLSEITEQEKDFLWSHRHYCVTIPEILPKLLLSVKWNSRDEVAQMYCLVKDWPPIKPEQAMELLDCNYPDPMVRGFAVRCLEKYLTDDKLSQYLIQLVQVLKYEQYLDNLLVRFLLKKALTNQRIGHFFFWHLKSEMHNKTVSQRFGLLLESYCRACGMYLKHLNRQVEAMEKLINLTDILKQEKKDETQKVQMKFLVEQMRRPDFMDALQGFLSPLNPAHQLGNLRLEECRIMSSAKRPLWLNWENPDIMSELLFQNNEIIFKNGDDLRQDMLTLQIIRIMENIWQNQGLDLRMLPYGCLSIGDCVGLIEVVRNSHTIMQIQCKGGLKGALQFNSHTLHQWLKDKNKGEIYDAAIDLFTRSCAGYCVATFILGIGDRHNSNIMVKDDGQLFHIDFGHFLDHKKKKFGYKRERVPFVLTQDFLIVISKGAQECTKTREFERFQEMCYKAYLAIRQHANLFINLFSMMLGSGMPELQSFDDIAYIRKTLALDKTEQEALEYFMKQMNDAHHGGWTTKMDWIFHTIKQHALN
Sequence of UniProt Q9UBS0 (whole entry, looked up): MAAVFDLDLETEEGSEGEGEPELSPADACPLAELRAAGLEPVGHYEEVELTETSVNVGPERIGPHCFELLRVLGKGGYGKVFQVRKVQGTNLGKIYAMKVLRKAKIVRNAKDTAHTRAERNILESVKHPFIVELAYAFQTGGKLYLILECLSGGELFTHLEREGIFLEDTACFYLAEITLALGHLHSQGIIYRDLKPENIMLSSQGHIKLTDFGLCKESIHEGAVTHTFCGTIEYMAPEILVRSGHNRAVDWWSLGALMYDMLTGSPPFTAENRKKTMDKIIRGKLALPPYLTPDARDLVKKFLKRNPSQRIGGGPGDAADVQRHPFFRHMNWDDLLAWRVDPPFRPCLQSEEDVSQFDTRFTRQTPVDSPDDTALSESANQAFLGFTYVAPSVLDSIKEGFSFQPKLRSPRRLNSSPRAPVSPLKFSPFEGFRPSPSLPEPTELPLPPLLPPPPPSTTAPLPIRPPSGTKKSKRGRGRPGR
Sequence of UniProt Q9BQI3 (whole entry, looked up): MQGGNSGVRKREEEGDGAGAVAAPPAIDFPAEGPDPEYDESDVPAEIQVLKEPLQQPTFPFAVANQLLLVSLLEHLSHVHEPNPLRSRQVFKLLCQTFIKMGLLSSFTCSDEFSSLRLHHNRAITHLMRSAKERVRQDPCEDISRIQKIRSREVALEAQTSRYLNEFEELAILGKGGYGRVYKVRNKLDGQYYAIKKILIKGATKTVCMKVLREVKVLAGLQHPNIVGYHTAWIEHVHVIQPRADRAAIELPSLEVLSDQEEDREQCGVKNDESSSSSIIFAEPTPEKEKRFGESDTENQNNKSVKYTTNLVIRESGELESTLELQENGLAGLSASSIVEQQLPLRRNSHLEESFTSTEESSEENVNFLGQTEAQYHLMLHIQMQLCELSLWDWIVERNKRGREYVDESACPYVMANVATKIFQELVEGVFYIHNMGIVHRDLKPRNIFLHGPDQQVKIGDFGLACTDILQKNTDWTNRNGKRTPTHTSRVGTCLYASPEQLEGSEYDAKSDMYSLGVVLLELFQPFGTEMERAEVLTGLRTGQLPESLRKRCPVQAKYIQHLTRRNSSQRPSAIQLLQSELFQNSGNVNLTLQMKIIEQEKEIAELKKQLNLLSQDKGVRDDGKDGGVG
Sequence of UniProt Q00535 (whole entry, looked up): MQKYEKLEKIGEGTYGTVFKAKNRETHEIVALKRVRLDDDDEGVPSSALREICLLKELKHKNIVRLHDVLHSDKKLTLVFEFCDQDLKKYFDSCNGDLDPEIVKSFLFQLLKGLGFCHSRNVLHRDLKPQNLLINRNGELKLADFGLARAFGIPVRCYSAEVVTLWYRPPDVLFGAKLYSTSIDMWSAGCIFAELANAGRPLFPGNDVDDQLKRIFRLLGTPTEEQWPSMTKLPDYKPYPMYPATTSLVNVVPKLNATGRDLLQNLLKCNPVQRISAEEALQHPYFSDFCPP

Block 1
Host: mouse
Sample: microsomes or S9
Concentration: 2 µM
Time: 0.5 h
| SMILES | remaining compound [%] |
| --- | --- |
| COc1cccc2c1OCC(C(=O)N1CCC3(CCCO3)CC1)C2 (stereo not drawn) | 17 |
| O=C(COc1ccc2c3ccccc3n(C(=O)c3cccnc3)c2c1)N1CCCCC1 | 0.101 |
| COC(=O)c1ccc(-c2nc3c(N)nc(S(C)(=O)=O)nc3n2C)cc1 | 22.8 |
| CN(CC(=O)Nc1nc2c(F)cc(F)cc2s1)S(C)(=O)=O | 37.7 |
| COC(=O)c1ccc2c(c1)OC(CC(=O)Nc1ccc(N)cc1)C(=O)N2 (stereo not drawn) | 71.2 |
| Cn1c(=O)nc(O)c2c1nc(NCCN)n2CC(O)COc1ccccc1 (stereo not drawn) | 40 |
| COc1ccccc1/C=C/c1nc(S(=O)(=O)c2ccccc2)c(N2CCN(C)CC2)o1 | 2.21 |
| CC(C)CNCC(=O)Nc1ccc(C(=O)N2c3ccc(S(=O)(=O)N4CC(c5ccccc5)NC4=O)cc3CC2C)cc1 (stereo not drawn) | 3.24 |
| CC(C)(C)NC(=O)Cn1c(=O)n(-c2ccccc2F)c(=O)c2sccc21 | 50.1 |

Block 2
Compound: O=C(Nc1ccccc1)Nc1cccc(Oc2ccc3nccn3n2)c1
Concentration: 1 µM
| target | test | conditions | scale | remaining binding |
| --- | --- | --- | --- | --- |
| Myosin light chain kinase, smooth muscle (MYLK, Homo sapiens, UniProt Q15746) | competitive binding panel |  | baseline: vehicle | 100% |
| Ephrin type-A receptor 8 (EPHA8, Homo sapiens, UniProt P29322) | competitive binding panel |  | baseline: vehicle | 100% |
| Calcium/calmodulin-dependent protein kinase type II subunit delta (CAMK2D, Homo sapiens, UniProt Q13557) | competitive binding panel |  | baseline: vehicle | 100% |
| Serine/threonine-protein kinase NIM1 (NIM1K, Homo sapiens, UniProt Q8IY84) | competitive binding panel, measured: NIM1 |  | baseline: vehicle | 81% |
| Tyrosine-protein kinase JAK3 (JAK3, Homo sapiens, UniProt P52333) | competitive binding panel | JH1 catalytic domain | baseline: vehicle | 100% |
| Tyrosine-protein kinase ITK/TSK (ITK, Homo sapiens, UniProt Q08881) | competitive binding panel |  | baseline: vehicle | 98% |
| Serine/threonine-protein kinase SIK3 (SIK3, Homo sapiens, UniProt Q9Y2K2) | competitive binding | QSK |  | 100% |

Block 3
Structure (SMILES): CCCCN(CCCC)C(=O)CN1C[C@@H](c2cc(OC)c3c(c2)OCO3)[C@H](C(=O)O)[C@H]1CC(C)(C)CCC
Concentration: 1 µM
| target | test | conditions | scale | remaining binding [%] |
| --- | --- | --- | --- | --- |
| Eukaryotic translation initiation factor 2-alpha kinase 1 (EIF2AK1, Homo sapiens, UniProt Q9BQI3) | cell-free assay, competition with immobilised ligand |  |  | 100 |
| Tyrosine-protein kinase ABL1 (ABL1, Homo sapiens, UniProt P00519, F317I) | KINOMEscan | F317I mutant, phosphorylated | baseline: control | 94.3 |
| Serine/threonine-protein kinase PAK 5 (PAK5, Homo sapiens, UniProt Q9P286) | cell-free assay, competition with immobilised ligand |  |  | 96.6 |
| Cyclin-dependent kinase 8 (CDK8, Homo sapiens, UniProt P49336) | cell-free assay, competition with immobilised ligand |  |  | 78 |
| BMP-2-inducible protein kinase (BMP2K, Homo sapiens, UniProt Q9NSY1) | cell-free assay, competition with immobilised ligand |  |  | 100 |
| Phosphatidylinositol 4,5-bisphosphate 3-kinase catalytic subunit alpha isoform (PIK3CA, Homo sapiens, UniProt P42336, H1047Y) | cell-free assay, competition with immobilised ligand |  |  | 92.6 |
| ALK tyrosine kinase receptor (ALK, Homo sapiens, UniProt Q9UM73, L1196M) | cell-free assay, competition with immobilised ligand |  |  | 100 |

Block 4
SMILES: CO[C@H]1C[C@@H]2CC[C@@H](C)[C@@](O)(O2)C(=O)C(=O)N2CCCC[C@H]2C(=O)O[C@H]([C@H](C)C[C@@H]2CC[C@@H](O)[C@H](OC)C2)CC(=O)[C@H](C)/C=C(\C)[C@@H](O)[C@@H](OC)C(=O)[C@H](C)C[C@H](C)/C=C/C=C/C=C/1C
Read-out: enzyme activity
Mode: inhibitor
Concentration: 0.5 µM
Baseline: control
| target | remaining activity [%] |
| --- | --- |
| Serine/threonine-protein kinase BRSK2 (BRSK2, Homo sapiens, UniProt Q8IWQ3) | 109 |
| Ribosomal protein S6 kinase beta-2 (RPS6KB2, Homo sapiens, UniProt Q9UBS0) | 95.4 |
| Activin receptor type-1-like (ACVRL1, Homo sapiens, UniProt P37023) | 97.9 |
| Cyclin-dependent kinase 5, with p35 (CDK5, Homo sapiens, UniProt Q00535) | 99.5 |
| Serine/threonine-protein kinase pim-1 (PIM1, Homo sapiens, UniProt P11309) | 104 |
| Serine/threonine-protein kinase MARK1 (MARK1, Homo sapiens, UniProt Q9P0L2) | 98.8 |
| Serine/threonine-protein kinase PAK 5 (PAK5, Homo sapiens, UniProt Q9P286) | 106 |
